Published values pooled from the literature.
Compare with care: the assays were run in different laboratories.
Technique: steady-state kinetics
B1: asnB E349A (Escherichia coli, UniProt P22106); chain CSIFGVFDIKTDAVELRKKALELSRLMRHRGPDWSGIYASDNAILAHERLSIVDVNAGAQPLYNQQKTHVLAVNGEIYNHQALRAEYGDRYQFQTGSDCEVILALYQEKGPEFLDDLQGMFAFALYDSEKDAYLIGRDHLGIIPLYMGYDEHGQLYVASEMKALVPVCRTIKEFPAGSYLWSQDGEIRSYYHRDWFDYDAVKDNVTDKNELRQALEDSVKSHLMSDVPYGVLLSGGLDSSIISAITKKYAARRVEDQERSEAWWPQLHSFAVGLPGSPDLKAAQEVANHLGTVHHEIHFTVQEGLDAIRDVIYHIETYDVTTIRASTPMYLMSRKIKAMGIKMVLSGAGSDEVFGGYLYFHKAPNAKELHEETVRKLLALHMYDCARANKAMSAWGVEARVPFLDKKFLDVAMRINPQDKMCGNGKMEKHILRECFEAYLPASVAWRQKEQFSDGVGYSWIDTLKEVAAQQVSDQQLETARFRFPYNTPTSKEAYLYREIFEELFPLPSAAECVPGGPSVACSSAKAIEWDEAFKKMDDPSGRAVGVHQSAYK
B2: iodotyrosine deiodinase (Haliscomenobacter hydrossis, UniProt F4KU78); chain MKQKPAFIPYAGAQFEPEEMLSKSAEYYQFMDHRRTVREFSNRAIPLEVIENIVMTASTAPSGAHKQPWTFVVVSDPQIKAKIRQAAEKEEFESYNGRMSNEWLEDLQPFGTDWHKPFLEIAPYLIVVFRKAYDVLPDGTQRKNYYVQESVGIACGFLLAAIHQAGLVALTHTPSPMNFLQKILQRPENERPFLLVPVGYPAEGAMVPDLQRKDKAAVMVVY
B3: POLH (Homo sapiens, UniProt Q9Y253); chain MATGQDRVVALVDMDCFFVQVEQRQNPHLRNKPCAVVQYKSWKGGGIIAVSYEARAFGVTRSMWADDAKKLCPDLLLAQVRESRGKANLTKYREASVEVMEIMSRFAVIERASIDEAYVDLTSAVQERLQKLQGQPISADLLPSTYIEGLPQGPTTAEETVQKEGMRKQGLFQWLDSLQIDNLTSPDLQLTVGAVIVEEMRAAIERETGFQCSAGISHNKVLAKLACGLNKPNRQTLVSHGSVPQLFSQMPIRKIRSLGGKLGASVIEILGIEYMGELTQFTESQLQSHFGEKNGSWLYAMCRGIEHDPVKPRQLPKTIGCSKNFPGKTALATREQVQWWLLQLAQELEERLTKDRNDNDRVATQLVVSIRVQGDKRLSSLRRCCALTRYDAHKMSHDAFTVIKNCNTSGIQTEWSPPLTMLFLCATKFSASAPSSSTDITSFLSSDPSSLPKVPVTSSEAKTQGSGPAVTATKKATTSLESFFQKAAERQKVKEASLSSLTAPTQAPMSNSPSKPSLPFQTSQSTGTEPFFKQKSLLLKQKQLNNSSVSSPQQNPWSNCKALPNSLPTEYPGCVPVCEGVSKLEESSKATPAEMDLAHNSQSMHASSASKSVLEVTQKATPNPSLLAAEDQVPCEKCGSLVPVWDMPEHMDYHFALELQKSFLQPHSSNPQVVSAVSHQGKRNPKSPLACTNKRPRPEGMQTLESFFKPLTH
B4: enzyme (Mortierella alpina, UniProt U5Y3C6); chain MAPPNTIDAGLTQRHISTSAPNSAKPAFERNYQLPEFTIKEIRECIPAHCFERSGLRGLCHVAIDLTWASLLFLAATQIDKFENPLIRYLAWPVYWIMQGIVCTGVWVLAHECGHQSFSTSKTLNNTVGWILHSMLLVPYHSWRISHSKHHKATGHMTKDQVFVPKTRSQVGLPPKENAAAAVQEEDMSVHLDEEAPIVTLFWMVIQFLFGWPAYLIMNASGQDYGRWTSHFHTYSPIFEPRNFFDIIISDLGVLAALGALIYASMQLSLLTVTKYYIVPYLFVNFWLVLITFLQHTDPKLPHYREGAWNFQRGALCTVDRSFGKFLDHMFHGIVHTHVAHHLFSQMPFYHAEEATYHLKKLLGEYYVYDPSPIVVAVWRSFRECRFVEDQGDVVFFKK
B5: enzyme (Caballeronia cordobensis, UniProt P0DXY1); chain MTTASSDPLLQPFTLKHLVLKNRVMSTSHASRLTRDEFPQEVYQRYHEEKAKGGLALTMFGGSSNVSLDSPNTFQQINLSADAVVPHLRRFSDRIHTHGAALMCQITHLGRRGDAYTEPWLPMIAPSPVRETLHRAMPQAIHDADIKRVIRDFGLAAKRCRDGGLDGIETHAGGHLIGQFMDPTVNLRTDKYGGSTANRVRFAIEVHEEIRKQVGDDFVVGFRFALEDGCSFEEGLEMSRILQGTGLFDFFNVTFGRMDTKMALAVNSMPGMFVPSAPWLPKAAAFKRAVDLPVFHAAKIADLATARYAIREGLLDMVGMTRAHIAEPHLVKLVEAGKEDEARPCVGASFCRNFRATCIHNPATSRETYLTHDIPKAAQTKRVLIVGAGPAGLEAARICATRGHDVTVLEANSTAGGQLLLAATGSWRRDLIGIVDWRVSALERLSVDVRYNHYAELSDVLDHGADVVIIATGGLPNLDALPGAEHCKSVFDALTETPPREGSVIVYDGTGRHNAYLCAERYVDAGLDVSLALIDSMPAQETGGRGDDQVWMRNIARWDVPVRTNIELIEVTASSNGKRRAVFQHHLTNERVELEADHVVVERGMLAVEDLFEAARMYSANDGYTDLEAFATGKPQPGHEAEEGQFHLYRIGDASASRDIHTAIYDAYRLCLAL
B6: enzyme (Saccharomyces cerevisiae, UniProt Q07534); chain MTEQATKPRNSSHLIGGFFGGLTSAVALQPLDLLKTRIQQDKKATLWKNLKEIDSPLQLWRGTLPSALRTSIGSALYLSCLNLMRSSLAKRRNAVPSLTNDSNIVYNKSSSLPRLTMYENLLTGAFARGLVGYITMPITVIKVRYESTLYNYSSLKEAITHIYTKEGLFGFFRGFGATCLRDAPYAGLYVLLYEKSKQLLPMVLPSRFIHYNPEGGFTTYTSTTVNTTSAVLSASLATTVTAPFDTIKTRMQLEPSKFTNSFNTFTSIVKNENVLKLFSGLSMRLARKAFSAGIAWGIYEELVKRFM
B7: UGT1A9 (Homo sapiens, UniProt O60656); chain GKLLVVPMDGSHWFTMRSVVEKLILRGHEVVVVMPEVSWQLGRSLNCTVKTYSTSYTLEDLDREFKAFAHAQWKAQVRSIYSLLMGSYNDIFDLFFSNCRSLFKDKKLVEYLKESSFDAVFLDPFDNCGLIVAKYFSLPSVVFARGILCHYLEEGAQCPAPLSYVPRILLGFSDAMTFKERVRNHIMHLEEHLLCHRFFKNALEIASEILQTPVTEYDLYSHTSIWLLRTDFVLDYPKPVMPNMIFIGGINCHQGKPLPMEFEAYINASGEHGIVVFSLGSMVSEIPEKKAMAIADALGKIPQTVLWRYTGTRPSNLANNTILVKWLPQNDLLGHPMTRAFITHAGSHGVYESICNGVPMVMMPLFGDQMDNAKRMETKGAGVTLNVLEMTSEDLENALKAVINDKSYKENIMRLSSLHKDRPVEPLDLAVFWVEFVMRHKGAPHLRPAAHDLTWYQYHSLDVIGFLLAVVLTVAFITFKCCAYGYRKCLGKKGRVKKAHKSKTH
UniProt Q11201, sequence (whole entry, looked up): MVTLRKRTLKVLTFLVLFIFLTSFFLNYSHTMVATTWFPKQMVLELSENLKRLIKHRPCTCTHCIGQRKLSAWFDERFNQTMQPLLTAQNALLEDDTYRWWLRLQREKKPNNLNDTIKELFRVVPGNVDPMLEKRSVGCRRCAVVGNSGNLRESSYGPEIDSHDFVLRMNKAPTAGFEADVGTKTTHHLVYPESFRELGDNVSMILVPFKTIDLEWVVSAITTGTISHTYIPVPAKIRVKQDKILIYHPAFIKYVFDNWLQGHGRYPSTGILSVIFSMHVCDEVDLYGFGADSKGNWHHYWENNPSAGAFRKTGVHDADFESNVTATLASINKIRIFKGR

CPR (Sorghum bicolor, UniProt C5YJG8)  Km (NC(=O)C1=CN([C@@H]2O[C@H](COP(=O)(O)OP(=O)(O)OC[C@H]3O[C@@H](n4cnc5c(N)ncnc54)[C@H](OP(=O)(O)O)[C@@H]3O)[C@@H](O)[C@H]2O)C=CC1; pH 7.4, 25 °C): 8.9 µM
ST3GAL1 (Homo sapiens, UniProt Q11201)  Km (CC(=O)N[C@H]1[C@H](O[C@H]2[C@@H](O)[C@@H](CO)O[C@@H](O[C@H]3[C@H](O)[C@@H](O)[C@H](Oc4ccc([N+](=O)[O-])cc4)O[C@@H]3CO)[C@@H]2O)O[C@H](CO)[C@@H](O)[C@@H]1O[C@@H]1O[C@H](CO)[C@H](O)[C@H](O)[C@H]1O; pH 6, with: CMP-Neu5Ac): 3230 µM
B1 (asnB E349A)  Km (NC(=O)CC[C@H](N)C(=O)O; pH 8, 37 °C, 100 mM NaCl, glutaminase site, with: MgCl2; no ATP): 5800 µM
B2 (iodotyrosine deiodinase)  Km (COc1cc(C[C@H](N)C(=O)O)cc(I)c1O; pH 7.4, 25 °C): 30 µM
B3 (POLH)  Km (Cc1cn([C@H]2C[C@H](O)[C@@H](COP(=O)(O)OP(=O)(O)OP(=O)(O)O)O2)c(=O)[nH]c1=O; pH 8, 37 °C, misinsertion opposite dT, with: Mg2+): 77.8 µM
B4 (enzyme)  Km (CCCCCC/C=C\CCCCCCCC(=O)SCCNC(=O)CCNC(=O)[C@H](O)C(C)(C)COP(=O)(O)OP(=O)(O)OC[C@H]1O[C@@H](n2cnc3c(N)ncnc32)[C@H](O)[C@@H]1OP(=O)(O)O; pH 7.5, 28 °C): 3.7 µM
B5 (enzyme)  Km (NC(=O)C1=CN([C@@H]2O[C@H](COP(=O)(O)OP(=O)(O)OC[C@H]3O[C@@H](n4cnc5c(N)ncnc54)[C@H](O)[C@@H]3O)[C@@H](O)[C@H]2O)C=CC1; pH 8, apparent, not purified, cofactor varied): 92.8 µM
enzyme (Thermoplasma acidophilum, UniProt Q9HJI4)  Km (NC(=O)C1=CN([C@@H]2O[C@H](COP(=O)(O)OP(=O)(O)OC[C@H]3O[C@@H](n4cnc5c(N)ncnc54)[C@H](O)[C@@H]3O)[C@@H](O)[C@H]2O)C=CC1; pH 7, 60 °C, apparent): 3.12 µM
alanine aminopeptidase (Neisseria meningitidis, UniProt Q9JYV4)  Km (NC(=O)Cc1cc(=O)oc2cc(NC(=O)[C@@H](N)Cc3ccc(Cl)cc3)ccc12; pH 7.5, 37 °C): 149 µM
B6 (enzyme)  Km (C=C(C)CCO[P@@](=O)(O)OP(=O)(O)O; pH 7.4, not purified): 11 µM
B7 (UGT1A9)  Km (COc1c(O)cc2oc(-c3ccc(O)c(O)c3)cc(=O)c2c1O; pH 7.4, 37 °C): 1.15 µM
B3 (POLH)  Km (Nc1nc2c(ncn2[C@H]2C[C@H](O)[C@@H](COP(=O)(O)OP(=O)(O)OP(=O)(O)O)O2)c(=O)[nH]1; 30 °C): 24.7 µM

Some of these lines once more:
B5 (enzyme)  Km (NC(=O)C1=CN([C@@H]2O[C@H](COP(=O)(O)OP(=O)(O)OC[C@H]3O[C@@H](n4cnc5c(N)ncnc54)[C@H](O)[C@@H]3O)[C@@H](O)[C@H]2O)C=CC1; pH 8, apparent, not purified, cofactor varied): 92.8 µM
